Measurements gathered from unrelated publications.
Parts stem from different laboratories: compare values within a part only. Substitutions count along the parent as printed.

Set 1 — method: protein binding microarray; molecule type: double-stranded DNA, one strand shown; sample: in vitro; tested at: not given; reference: not given; reading: higher = stronger binding
Target: Histone acetyltransferase KAT6A, both winged helices, GST fusion (KAT6A, Homo sapiens, UniProt Q92794, residues 1-181)
Setting: 8-mer, flanks averaged, mean of 2 arrays, mostly near background
Residues (chain): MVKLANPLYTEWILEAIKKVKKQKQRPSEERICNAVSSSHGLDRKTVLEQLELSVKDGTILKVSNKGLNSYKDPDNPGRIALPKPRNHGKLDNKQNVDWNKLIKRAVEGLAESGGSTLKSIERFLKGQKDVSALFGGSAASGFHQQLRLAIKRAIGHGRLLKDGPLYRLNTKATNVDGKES
Sequence | E-score
GGCGGTCA | 0.194
ACTTTGCA | -0.233
GCATCGGC | 0.179
CGCAAACG | 0.159
CAGTGCCC | -0.0498
CGCTATGA | 0.12
AATGGGTG | -0.282
GGACCGTA | 0.189
CCCGAAGA | -0.022
ACCAGGGA | -0.293
ATGATTAG | -0.0474
ACCGATAG | -0.0721
ATAGTTCA | 0.0207
ACCGCGAA | 0.282
AGAAACCG | 0.0612
ATAAGGTG | -0.122
GGTACTGA | 0.0708
GCGAACCA | 0.126
TCGTATCA | 0.0309
CGAATTTC | -0.00751
TCCCGTCA | 0.228
GATATAGC | 0.0569
CCCACGTA | -0.194
CCTGCGCA | 0.0972
CATTTTGG | -0.0699

Set 2 — method: universal PBM; molecule type: double-stranded DNA, one strand shown; sample: in vitro; tested at: 600 nM; reading: higher = stronger binding
Target: Sal-like protein 4, full length isoform A (SALL4, Homo sapiens, UniProt Q9UJQ4, residues 1-1053)
Chain of UniProt Q9UJQ4 (whole entry, looked up): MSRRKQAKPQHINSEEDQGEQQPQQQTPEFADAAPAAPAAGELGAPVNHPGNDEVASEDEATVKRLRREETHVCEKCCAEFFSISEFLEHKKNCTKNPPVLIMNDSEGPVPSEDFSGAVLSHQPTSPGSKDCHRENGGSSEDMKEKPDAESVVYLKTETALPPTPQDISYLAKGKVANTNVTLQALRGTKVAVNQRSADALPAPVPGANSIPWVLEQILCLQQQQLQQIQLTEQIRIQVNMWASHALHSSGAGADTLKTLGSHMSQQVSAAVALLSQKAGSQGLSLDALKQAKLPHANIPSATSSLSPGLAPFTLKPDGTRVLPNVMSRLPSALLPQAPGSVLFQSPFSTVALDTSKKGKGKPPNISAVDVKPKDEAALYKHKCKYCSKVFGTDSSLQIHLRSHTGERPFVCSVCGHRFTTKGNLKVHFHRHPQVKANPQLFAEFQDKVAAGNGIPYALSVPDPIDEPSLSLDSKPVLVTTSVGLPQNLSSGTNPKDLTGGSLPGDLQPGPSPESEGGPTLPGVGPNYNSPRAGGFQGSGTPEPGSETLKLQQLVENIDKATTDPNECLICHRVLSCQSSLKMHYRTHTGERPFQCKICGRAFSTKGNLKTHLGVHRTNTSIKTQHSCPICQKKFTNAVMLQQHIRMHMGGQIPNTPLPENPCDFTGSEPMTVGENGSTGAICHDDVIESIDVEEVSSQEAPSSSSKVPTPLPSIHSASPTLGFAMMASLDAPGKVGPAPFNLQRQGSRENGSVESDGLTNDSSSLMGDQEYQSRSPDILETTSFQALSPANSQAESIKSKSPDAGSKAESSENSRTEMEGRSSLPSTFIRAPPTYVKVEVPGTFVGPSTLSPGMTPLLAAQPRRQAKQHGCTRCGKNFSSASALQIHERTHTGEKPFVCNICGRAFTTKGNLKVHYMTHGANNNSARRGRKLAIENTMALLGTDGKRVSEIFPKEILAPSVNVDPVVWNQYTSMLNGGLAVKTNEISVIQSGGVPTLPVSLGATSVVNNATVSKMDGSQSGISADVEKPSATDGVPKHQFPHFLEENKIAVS
Setting: 8-mer, flanks averaged, mean of replicates
Sequence | E-score
CCATGTAC | 0.0202
CGCCGGAA | -0.236
AATCAACT | 0.125
GTCCCCTA | -0.27
CCCCCCCC | -0.375
GGGACTAA | 0.00668
CGCGGACG | -0.323
ACGACTCA | -0.0425
AATAGGGT | 0.202
AGGGACAT | 0.0282
ACCATAGC | -0.115
CATGTAGA | 0.16
CCAAGGCA | -0.175
AAGGCTGA | -0.014
CAAGCTAC | -0.113
AGTGGTGA | -0.0138
ATATTAAG | 0.398
AGGTGCTA | 0.101
CACTAATC | 0.116
AAGAAGAT | 0.193
GCGAACCA | -0.0237
CAATCCGG | -0.171
ATCTCGTC | -0.161
CCGTAATC | -0.101
ATTTCTAA | 0.175

Set 3 — target: CCNF, cyclin fold, Cln2 fusion (human); method: yeast growth competition, sequencing; sample: yeast; setting: strong parent motif; reference: not given; reading: higher = stronger binding
Starting sequence: CDKN1B docking peptide (human); PSACRNLFGPVDH; partner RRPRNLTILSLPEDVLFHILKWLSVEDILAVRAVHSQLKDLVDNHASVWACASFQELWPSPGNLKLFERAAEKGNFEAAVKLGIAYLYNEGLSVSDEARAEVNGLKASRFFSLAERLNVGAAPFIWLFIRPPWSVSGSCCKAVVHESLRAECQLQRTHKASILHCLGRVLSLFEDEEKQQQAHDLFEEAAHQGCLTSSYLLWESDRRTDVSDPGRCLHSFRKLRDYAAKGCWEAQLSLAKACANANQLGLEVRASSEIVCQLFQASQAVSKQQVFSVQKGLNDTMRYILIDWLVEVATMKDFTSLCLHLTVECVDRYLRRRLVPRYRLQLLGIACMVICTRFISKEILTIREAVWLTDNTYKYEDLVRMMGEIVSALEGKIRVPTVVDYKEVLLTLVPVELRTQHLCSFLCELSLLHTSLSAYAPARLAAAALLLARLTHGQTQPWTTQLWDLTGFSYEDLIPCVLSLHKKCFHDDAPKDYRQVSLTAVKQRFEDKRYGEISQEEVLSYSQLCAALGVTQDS
Substitution | normalised enrichment score
PSECRNLFGPVDH [A3E] | 3.47
PSACRNLFGPVDT [H13T] | 6.32
PSAHRNLFGPVDH [C4H] | 2.55
PSACRNLFGPVDW [H13W] | 7.98
PSACRNLFGPVTH [D12T] | 6.95
PSACRNLFGIVDH [P10I] | 6.3
PSACRNLFDPVDH [G9D] | 4.43
PSACRNLPGPVDH [F8P] | 0.747
PTACRNLFGPVDH [S2T] | 6.89
PSACRFLFGPVDH [N6F] | 3.04
PSACTNLFGPVDH [R5T] | 0.226
PSACRTLFGPVDH [N6T] | 4.35
RSACRNLFGPVDH [P1R] | 7.63
PSACRNLFGCVDH [P10C] | 6.53
PSACPNLFGPVDH [R5P] | -0.845
PSACRNLDGPVDH [F8D] | -0.541
PSACRHLFGPVDH [N6H] | 2.38

Further values, each from its own experiment
Substance | target | assay | system | conditions | scale | quantity | value
PhoQ, residues 284 288 289 292 302 303 TLASMF | PhoP, residues 12 14 15 18 19 GHCSL (Escherichia coli, UniProt P23836) | Sort-seq, measured: YFP reporter | E. coli | PhoQ-PhoP variant library, with: 10 µM Mg2+ | reference: high Mg2+ state, higher = stronger signaling | fold induction | 18.4

Repeated from above (set 2):
Sequence | E-score
CAATCCGG | -0.171
CCAAGGCA | -0.175
ATCTCGTC | -0.161
CGCGGACG | -0.323
